Measured values from different studies.
Numbered parts are unrelated; each lists some results of a single study. Several values in a cell are separate wells, animals, samples, runs or records.
Sequence of UniProt P10721 (whole entry, unmodified, looked up): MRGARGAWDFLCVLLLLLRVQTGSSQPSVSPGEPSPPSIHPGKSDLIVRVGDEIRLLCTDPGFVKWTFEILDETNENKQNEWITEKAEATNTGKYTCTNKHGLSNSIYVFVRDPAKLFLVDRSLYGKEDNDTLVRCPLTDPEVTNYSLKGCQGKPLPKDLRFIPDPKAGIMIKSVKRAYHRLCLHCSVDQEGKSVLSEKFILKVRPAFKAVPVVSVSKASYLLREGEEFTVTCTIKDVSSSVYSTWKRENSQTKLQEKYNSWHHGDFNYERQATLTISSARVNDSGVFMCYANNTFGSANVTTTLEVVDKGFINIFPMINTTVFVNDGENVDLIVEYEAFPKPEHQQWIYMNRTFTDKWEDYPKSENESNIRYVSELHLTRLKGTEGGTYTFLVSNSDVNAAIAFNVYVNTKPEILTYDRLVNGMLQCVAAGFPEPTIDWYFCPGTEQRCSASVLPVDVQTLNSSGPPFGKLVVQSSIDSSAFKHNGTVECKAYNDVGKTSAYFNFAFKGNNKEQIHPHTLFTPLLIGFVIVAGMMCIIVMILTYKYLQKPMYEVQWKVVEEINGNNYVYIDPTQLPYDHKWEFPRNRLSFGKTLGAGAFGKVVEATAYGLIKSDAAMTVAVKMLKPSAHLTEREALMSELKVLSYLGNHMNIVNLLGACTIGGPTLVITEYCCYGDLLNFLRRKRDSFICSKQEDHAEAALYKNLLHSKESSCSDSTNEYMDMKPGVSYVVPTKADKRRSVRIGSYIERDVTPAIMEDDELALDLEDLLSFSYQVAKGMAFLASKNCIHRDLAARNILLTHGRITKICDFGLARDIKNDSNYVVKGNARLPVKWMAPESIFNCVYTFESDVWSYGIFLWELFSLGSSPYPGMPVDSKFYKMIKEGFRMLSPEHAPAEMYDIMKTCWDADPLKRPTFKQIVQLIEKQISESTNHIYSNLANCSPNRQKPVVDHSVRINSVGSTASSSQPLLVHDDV
Sequence of UniProt P68400 (whole entry, looked up): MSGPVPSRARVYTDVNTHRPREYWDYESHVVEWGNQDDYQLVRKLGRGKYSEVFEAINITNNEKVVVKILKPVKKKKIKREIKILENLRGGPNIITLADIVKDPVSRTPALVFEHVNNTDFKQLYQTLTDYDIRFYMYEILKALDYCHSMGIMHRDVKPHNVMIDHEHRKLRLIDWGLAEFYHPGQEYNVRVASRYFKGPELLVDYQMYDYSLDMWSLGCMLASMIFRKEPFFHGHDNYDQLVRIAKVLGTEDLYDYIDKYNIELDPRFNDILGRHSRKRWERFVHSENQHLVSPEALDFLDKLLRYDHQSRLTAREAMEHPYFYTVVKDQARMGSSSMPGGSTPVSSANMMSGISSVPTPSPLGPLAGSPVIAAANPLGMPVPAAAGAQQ
Sequence of UniProt Q04759 (whole entry, looked up): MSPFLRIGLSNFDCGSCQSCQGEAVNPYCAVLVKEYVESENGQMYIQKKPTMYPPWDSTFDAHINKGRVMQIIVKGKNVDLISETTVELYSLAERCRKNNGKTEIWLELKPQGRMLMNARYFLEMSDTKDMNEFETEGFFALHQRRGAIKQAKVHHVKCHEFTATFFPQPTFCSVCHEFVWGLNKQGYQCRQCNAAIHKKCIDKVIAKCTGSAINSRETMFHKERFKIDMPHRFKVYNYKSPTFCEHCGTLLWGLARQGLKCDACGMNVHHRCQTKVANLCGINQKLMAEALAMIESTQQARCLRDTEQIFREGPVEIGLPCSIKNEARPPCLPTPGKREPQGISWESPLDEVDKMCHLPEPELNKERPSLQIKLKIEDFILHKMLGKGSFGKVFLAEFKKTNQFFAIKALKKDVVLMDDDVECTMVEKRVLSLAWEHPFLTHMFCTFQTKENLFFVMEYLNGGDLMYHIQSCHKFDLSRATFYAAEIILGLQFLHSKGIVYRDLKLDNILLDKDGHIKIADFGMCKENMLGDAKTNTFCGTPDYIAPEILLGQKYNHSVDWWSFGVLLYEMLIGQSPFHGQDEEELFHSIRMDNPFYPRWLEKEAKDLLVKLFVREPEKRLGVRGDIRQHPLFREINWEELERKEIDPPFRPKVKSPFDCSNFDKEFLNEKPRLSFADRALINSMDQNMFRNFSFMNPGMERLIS
Sequence of UniProt Q13131 (whole entry, looked up): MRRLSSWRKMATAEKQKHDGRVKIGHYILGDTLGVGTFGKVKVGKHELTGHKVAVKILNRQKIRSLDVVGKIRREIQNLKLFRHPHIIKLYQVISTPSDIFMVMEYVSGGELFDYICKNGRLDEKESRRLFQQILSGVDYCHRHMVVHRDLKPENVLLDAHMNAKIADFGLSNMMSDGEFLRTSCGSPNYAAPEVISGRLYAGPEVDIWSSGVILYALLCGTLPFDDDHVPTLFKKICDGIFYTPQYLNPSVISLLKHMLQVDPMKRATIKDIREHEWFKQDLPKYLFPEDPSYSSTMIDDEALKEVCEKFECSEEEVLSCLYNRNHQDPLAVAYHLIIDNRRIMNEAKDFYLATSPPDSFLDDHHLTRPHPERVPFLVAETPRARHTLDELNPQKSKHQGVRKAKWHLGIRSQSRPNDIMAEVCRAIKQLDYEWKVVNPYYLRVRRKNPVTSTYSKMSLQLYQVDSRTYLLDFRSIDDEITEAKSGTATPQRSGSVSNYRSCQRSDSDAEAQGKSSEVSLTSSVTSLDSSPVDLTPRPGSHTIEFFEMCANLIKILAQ
Sequence of UniProt Q15835 (whole entry, looked up): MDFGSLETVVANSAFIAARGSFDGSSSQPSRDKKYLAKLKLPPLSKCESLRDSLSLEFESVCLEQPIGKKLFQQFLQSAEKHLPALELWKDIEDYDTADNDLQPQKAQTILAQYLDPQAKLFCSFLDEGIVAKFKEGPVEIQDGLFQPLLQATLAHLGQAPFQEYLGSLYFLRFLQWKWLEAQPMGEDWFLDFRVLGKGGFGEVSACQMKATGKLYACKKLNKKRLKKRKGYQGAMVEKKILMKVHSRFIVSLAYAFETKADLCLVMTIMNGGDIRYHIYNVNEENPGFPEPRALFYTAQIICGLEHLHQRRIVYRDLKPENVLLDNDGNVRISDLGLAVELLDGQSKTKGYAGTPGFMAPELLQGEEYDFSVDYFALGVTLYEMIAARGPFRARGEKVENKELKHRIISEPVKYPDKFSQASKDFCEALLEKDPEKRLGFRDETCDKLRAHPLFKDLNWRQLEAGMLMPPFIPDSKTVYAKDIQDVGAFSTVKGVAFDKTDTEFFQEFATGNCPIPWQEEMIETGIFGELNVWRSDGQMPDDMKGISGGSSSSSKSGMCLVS
Sequence of UniProt Q9NWZ3 (whole entry, looked up): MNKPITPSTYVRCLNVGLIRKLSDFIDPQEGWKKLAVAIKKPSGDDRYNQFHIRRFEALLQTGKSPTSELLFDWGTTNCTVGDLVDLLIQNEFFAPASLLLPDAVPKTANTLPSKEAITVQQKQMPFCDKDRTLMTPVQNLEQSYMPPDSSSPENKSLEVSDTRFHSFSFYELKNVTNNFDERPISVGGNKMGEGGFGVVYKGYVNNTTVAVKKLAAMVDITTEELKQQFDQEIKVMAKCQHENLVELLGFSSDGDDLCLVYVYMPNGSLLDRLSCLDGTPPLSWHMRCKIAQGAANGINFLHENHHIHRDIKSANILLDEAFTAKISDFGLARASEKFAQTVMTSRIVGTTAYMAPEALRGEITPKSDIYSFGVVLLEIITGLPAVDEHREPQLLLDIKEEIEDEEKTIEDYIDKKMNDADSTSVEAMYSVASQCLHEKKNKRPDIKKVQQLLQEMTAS
Sequence of UniProt Q05655 (whole entry, looked up): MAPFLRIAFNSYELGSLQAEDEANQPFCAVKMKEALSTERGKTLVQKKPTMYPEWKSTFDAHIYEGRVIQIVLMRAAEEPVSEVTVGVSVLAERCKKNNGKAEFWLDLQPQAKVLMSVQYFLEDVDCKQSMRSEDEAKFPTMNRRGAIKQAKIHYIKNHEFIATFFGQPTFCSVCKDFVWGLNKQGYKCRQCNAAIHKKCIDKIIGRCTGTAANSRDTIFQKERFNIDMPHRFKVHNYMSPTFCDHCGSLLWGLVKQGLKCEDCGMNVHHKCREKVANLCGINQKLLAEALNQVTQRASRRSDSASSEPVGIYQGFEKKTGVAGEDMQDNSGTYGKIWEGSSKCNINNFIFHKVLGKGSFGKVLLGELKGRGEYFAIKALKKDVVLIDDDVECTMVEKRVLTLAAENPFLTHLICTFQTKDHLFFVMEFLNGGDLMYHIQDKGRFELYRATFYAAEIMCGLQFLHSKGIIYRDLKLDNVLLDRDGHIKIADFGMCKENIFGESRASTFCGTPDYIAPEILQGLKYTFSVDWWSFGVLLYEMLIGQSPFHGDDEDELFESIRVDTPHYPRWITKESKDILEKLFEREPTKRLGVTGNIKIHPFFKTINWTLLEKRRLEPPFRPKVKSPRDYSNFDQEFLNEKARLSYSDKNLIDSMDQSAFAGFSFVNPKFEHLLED
Sequence of UniProt P41743 (whole entry, looked up): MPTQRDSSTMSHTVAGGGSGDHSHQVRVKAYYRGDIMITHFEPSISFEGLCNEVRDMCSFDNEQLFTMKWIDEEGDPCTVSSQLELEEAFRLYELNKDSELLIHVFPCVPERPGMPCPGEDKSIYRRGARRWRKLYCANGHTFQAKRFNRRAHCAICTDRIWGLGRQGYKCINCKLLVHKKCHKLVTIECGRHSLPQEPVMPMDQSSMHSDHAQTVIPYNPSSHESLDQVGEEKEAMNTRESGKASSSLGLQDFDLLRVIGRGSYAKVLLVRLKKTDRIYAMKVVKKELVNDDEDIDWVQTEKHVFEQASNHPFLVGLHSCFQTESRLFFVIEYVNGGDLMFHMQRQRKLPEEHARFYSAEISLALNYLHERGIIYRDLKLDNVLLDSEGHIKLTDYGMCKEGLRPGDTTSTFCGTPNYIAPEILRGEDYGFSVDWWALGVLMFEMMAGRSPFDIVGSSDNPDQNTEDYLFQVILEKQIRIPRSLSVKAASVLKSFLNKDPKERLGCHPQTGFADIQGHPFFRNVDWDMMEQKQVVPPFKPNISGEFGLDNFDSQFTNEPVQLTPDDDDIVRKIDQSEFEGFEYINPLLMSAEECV

Block 1 — host: idiopathic pulmonary fibrosis patients; matrix: plasma
Structure (SMILES): CC(C)n1cnc(-c2ccc(F)cc2)c1-c1ncc(C(=O)Nc2ccc(N3CCN(C)CC3)cc2)[nH]1
route | dose | time | setting | Cmax [ng/mL]
– | 60 mg once daily | week 0 | median | 242
– | 30 mg twice daily | week 0 | median | 89.6
oral | 60 mg once daily | week 12 | arithmetic mean | 312
oral | 30 mg once daily | week 12 | arithmetic mean | 111
– | 30 mg twice daily | week 12 | median | 104
– | 30 mg once daily | week 12 | median | 104

Block 2 — Compound: O=C1c2ccccc2-c2nc3nnnn3nc21; effect on: enzyme activity; action: inhibitor; tested at: 0.5 µM; reference: control
target | remaining activity [%]
PRKCI (Homo sapiens, UniProt P41743) | 85.7
CSNK2A1 (Homo sapiens, UniProt P68400) | 101
PRKG1 (Homo sapiens, UniProt Q13976) | 109
IRAK4 (Homo sapiens, UniProt Q9NWZ3) | 96.9
LYN (Homo sapiens, UniProt P07948) | 85.2
AKT3 (Homo sapiens, UniProt Q9Y243) | 81.2
STK38 (Homo sapiens, UniProt Q15208) | 46.6
PRKCD (Homo sapiens, UniProt Q05655) | 102

Block 3 — SMILES: CC(C)(O)c1cncc(-c2nc3ccc(F)cc3n2C2CC2)c1; method: competition with immobilised ligand; tested at: 1 µM
target | effect on | remaining binding [%]
NEK2 (Homo sapiens, UniProt P51955) | cell-free assay | 100
Mast/stem cell growth factor receptor Kit, autoinhibited (KIT, Homo sapiens, UniProt P10721) | cell-free assay | 86
FRK (Homo sapiens, UniProt P42685) | cell-free assay | 100
DYRK2 (Homo sapiens, UniProt Q92630) | cell-free assay | 100
PRKCQ (Homo sapiens, UniProt Q04759) | cell-free assay | 100
Tyrosine-protein kinase ABL1, non-phosphorylated (ABL1, Homo sapiens, UniProt P00519, F317I) | binding | 100
ULK2 (Homo sapiens, UniProt Q8IYT8) | cell-free assay | 100
PIK3CA (Homo sapiens, UniProt P42336, I800L) | cell-free assay | 90
NTRK3 (Homo sapiens, UniProt Q16288) | cell-free assay | 100
CAMK2G (Homo sapiens, UniProt Q13555) | cell-free assay | 100
PRKAA1 (Homo sapiens, UniProt Q13131) | cell-free assay | 100
TLK2 (Homo sapiens, UniProt Q86UE8) | cell-free assay | 100
ZAP70 (Homo sapiens, UniProt P43403) | cell-free assay | 100
GRK1 (Homo sapiens, UniProt Q15835) | cell-free assay | 100
KIT (Homo sapiens, UniProt P10721, V559D) | cell-free assay | 100
CAMK1D (Homo sapiens, UniProt Q8IU85) | cell-free assay | 100

Block 4 — cell line: mouse MPNST tumor cells; method: high-content nuclear imaging; refers to: cell number; tested at: 10 µM; time: 12 h; setting: mean of 2 replicates; reference: plate mean; direction: higher = more cells
SMILES | nuclei count
Cc1nccc(-c2cn(Cc3ccccc3)c3cnccc23)n1 | 1.51 z-score
O=c1n(CCCN2CCN(c3cccc(Cl)c3)CC2)nc2ccccn12 | 0.798 z-score and 0.445 z-score and 1.01 z-score
CCC(=O)O[C@@H](O[P@](=O)(CCCCc1ccccc1)CC(=O)N1C[C@H](C2CCCCC2)C[C@H]1C(=O)O)C(C)C | 0.8 z-score
CCC1(c2ccccc2)NC(=O)N(C)C1=O (centres unmarked) | 2.33 z-score and 1.48 z-score
CCO[C@@H](Cc1ccc(OCCc2ccc(OS(C)(=O)=O)cc2)cc1)C(=O)O | 0.953 z-score

A few entries again (block 3):
target | effect on | remaining binding [%]
GRK1 (Homo sapiens, UniProt Q15835) | cell-free assay | 100
Tyrosine-protein kinase ABL1, non-phosphorylated (ABL1, Homo sapiens, UniProt P00519, F317I) | binding | 100
FRK (Homo sapiens, UniProt P42685) | cell-free assay | 100
NEK2 (Homo sapiens, UniProt P51955) | cell-free assay | 100
KIT (Homo sapiens, UniProt P10721, V559D) | cell-free assay | 100
